Published values pooled from the literature.
Protocols differ between the studies behind these lines.
HLA class I histocompatibility antigen, B alpha chain allele B*08:01: HLA class I histocompatibility antigen, B alpha chain, allele B*08:01 (Homo sapiens, UniProt P01889)
HLA class I histocompatibility antigen, B alpha chain allele B*40:01: HLA class I histocompatibility antigen, B alpha chain, allele B*40:01 (Homo sapiens, UniProt P01889)
HLA class I histocompatibility antigen, B alpha chain: HLA class I histocompatibility antigen, B alpha chain (Homo sapiens, UniProt P01889)
HLA class I histocompatibility antigen, B alpha chain allele B*27:05: HLA class I histocompatibility antigen, B alpha chain, allele B*27:05 (Homo sapiens, UniProt P01889)

Compound	target	assay	setting	IC50 [µM]
CSCC[C@H](NC(=O)[C@H](CCC(=O)O)NC(=O)[C@H](CCC(=O)O)NC(=O)[C@@H](N)CCCNC(=N)N)C(=O)N[C@@H](CCC(=O)O)C(=O)N[C@H](C(=O)N[C@@H](Cc1c[nH]cn1)C(=O)N[C@@H](CCC(=O)O)C(=O)N[C@@H](CC(C)C)C(=O)O)C(C)C	HLA class I histocompatibility antigen, B alpha chain allele B*08:01	binding, competitor, radioligand competition	two days, room temperature, HLA-B*08:01	1.08
CC(C)C[C@H](NC(=O)[C@@H](NC(=O)[C@@H](NC(=O)[C@H](CC(=O)O)NC(=O)[C@H](Cc1ccccc1)NC(=O)[C@H](CCC(N)=O)NC(=O)[C@@H](N)CCCCN)C(C)C)[C@@H](C)O)C(=O)N[C@@H](Cc1ccc(O)cc1)C(=O)N[C@@H](Cc1ccccc1)C(=O)O	HLA class I histocompatibility antigen, B alpha chain allele B*40:01	binding		4.74
CC[C@H](C)[C@H](NC(=O)[C@H](CCCCN)NC(=O)[C@H](Cc1ccccc1)NC(=O)[C@H](Cc1ccc(O)cc1)NC(=O)CNC(=O)[C@H](CC(=O)O)NC(=O)[C@@H](NC(=O)[C@H](CC(N)=O)NC(=O)[C@@H](N)CCCCN)[C@@H](C)CC)C(=O)N[C@@H](Cc1ccc(O)cc1)C(=O)O	HLA class I histocompatibility antigen, B alpha chain	peptide-MHC binding, radioligand competition binding		> 70
CC[C@H](C)[C@H](NC(=O)[C@@H]1CCCN1C(=O)[C@H](CCCCN)NC(=O)[C@@H]1CCCN1C(=O)[C@H](CCSC)NC(=O)[C@H](CCC(N)=O)NC(=O)[C@@H](N)Cc1ccc(O)cc1)C(=O)N[C@H](C(=O)N[C@@H](Cc1ccccc1)C(=O)O)[C@@H](C)O	HLA class I histocompatibility antigen, B alpha chain allele B*40:01	binding		23.1
CC[C@H](C)[C@H](NC(=O)[C@@H](NC(=O)[C@@H](NC(=O)[C@H](CC(N)=O)NC(=O)[C@@H](NC(=O)[C@H](C)NC(=O)[C@@H](N)CC(N)=O)[C@@H](C)O)C(C)C)C(C)C)C(=O)N[C@@H](CCCCN)C(=O)N[C@H](C(=O)O)C(C)C	HLA class I histocompatibility antigen, B alpha chain, allele B*18:01 (Homo sapiens, UniProt P01889)	peptide-MHC binding, radioligand competition binding		> 70
CC[C@H](C)[C@H](NC(=O)[C@H](CCCNC(=N)N)NC(=O)CNC(=O)[C@@H](NC(=O)[C@@H]1CCCN1C(=O)[C@@H](N)CCSC)[C@@H](C)CC)C(=O)N[C@@H](C)C(=O)N[C@@H](CCC(=O)O)C(=O)N[C@@H](CS)C(=O)N[C@H](C(=O)N[C@@H](CC(C)C)C(=O)O)[C@@H](C)CC	HLA class I histocompatibility antigen, B alpha chain allele B*08:01	binding, competitor, radioligand competition	two days, room temperature, HLA-B*08:01	0.489
CC[C@H](C)[C@H](NC(=O)[C@H](CCCNC(=N)N)NC(=O)[C@@H](N)Cc1ccc(O)cc1)C(=O)N[C@@H](Cc1ccc(O)cc1)C(=O)N[C@@H](CC(=O)O)C(=O)N[C@H](C(=O)N1CCC[C@H]1C(=O)N1CCC[C@H]1C(=O)N[C@@H](CCCCN)C(=O)O)[C@@H](C)CC	HLA class I histocompatibility antigen, B alpha chain allele B*27:05	peptide binding, fluorescence anisotropy	18 h, 4 °C	0.06
CC(C)[C@H](NC(=O)[C@H](C)NC(=O)[C@@H](N)Cc1ccccc1)C(=O)N[C@@H](CC(=O)O)C(=O)N[C@@H](C)C(=O)N[C@@H](C)C(=O)N[C@@H](CCCCN)C(=O)N[C@@H](C)C(=O)N[C@@H](Cc1ccc(O)cc1)C(=O)O	HLA class I histocompatibility antigen, B alpha chain	peptide-MHC binding, radioligand competition binding		> 70
CC[C@H](C)[C@H](NC(=O)[C@H](CCC(N)=O)NC(=O)[C@@H]1CCCN1C(=O)[C@H](Cc1ccc(O)cc1)NC(=O)[C@@H]1CCCN1C(=O)[C@@H](N)CC(C)C)C(=O)N[C@@H](CC(C)C)C(=O)N[C@@H](CC(C)C)C(=O)N[C@@H](CC(C)C)C(=O)O	HLA class I histocompatibility antigen, B alpha chain allele B*08:01	binding, competitor		12.4
CC[C@H](C)[C@H](NC(=O)[C@H](CCCNC(=N)N)NC(=O)[C@H](CC(C)C)NC(=O)[C@@H](NC(=O)[C@H](CCCNC(=N)N)NC(=O)[C@@H](N)CC(C)C)[C@@H](C)CC)C(=O)N[C@@H](CCCCN)C(=O)N[C@@H](CC(C)C)C(=O)N[C@@H](CCCNC(=N)N)C(=O)O	HLA class I histocompatibility antigen, B alpha chain allele B*27:05	peptide binding, fluorescence anisotropy	18 h, 4 °C	0.109
